Experimental data pooled from the literature.
Each line is one published result; not all experiments were run side by side. Values joined by “and” are separate records of one study, mostly repeats; a detail may differ. ± marks the error that the study gave.

With `O=C(/C=C/C=C/C=C/C1CCCCC1)NC1=C[C@@](O)(/C=C/C=C/C=C/C(=O)NC2=C(O)CCC2=O)[C@@H]2O[C@@H]2C1=O` the GI50 was 7.78 µM (MDA-MB-157; cell growth, CellTiter-Glo; 78 h).
`O=C(/C=C/c1cccc(S(=O)(=O)Nc2ccccc2)c1)NO`: “IL-1β mRNA level” “decreased” (differentiated THP-1; 25 µg/mL; relative to: untreated).
For `O=C(O)c1ccc(Nc2ncc3c(n2)-c2ccc(Cl)cc2C(c2c(F)cccc2F)=NC3)cc1`, the beat rate was 102% (iCell Cardiomyocytes (hiPSC-derived); xCELLigence Cardio impedance; concentration not given, 2 h; relative to: control).
For `CCn1cc(-c2cc(Cn3ccnc3)cc3c2CCN([C@H](c2cc(OC)ccn2)C2CC2)C3=O)c(C(F)(F)F)n1`, the EC50 was 29.5 µM (AN3-CA; cell growth, inhibitor; 120 h).
`O=C(O)c1ccc(-c2c[nH]c3ncc(-c4ccccc4)cc23)cc1C1CCCC1`: “relative cell number” 107% (SK-OV-3; ATP; 10 µM, 4 days, 3D U-bottom low-attachment; relative to: untreated).
`Nc1cccc2c1C(=O)N(C1CCC(=O)NC1=O)C2=O` (centres unmarked) gave a viability of 22% (MM1.S; XTT; 2 µM; relative to: untreated).
`COc1cnc2cccc(N3CCc4c(cc(Cn5ccnc5C)cc4-c4cn(C)nc4C(F)(F)F)C3=O)c2c1` gave an EC50 of > 30 µM (LUDLU-1; cell growth, inhibitor; 120 h).
`Cc1cc(Nc2ncc(Cl)c(Nc3ccccc3S(=O)(=O)C(C)C)n2)c(OC(C)C)cc1C1CCNCC1` — result for “log2 fold change”: -5.88 (CLB-BAR; phosphoproteomics LC-MS/MS, refers to: CCDC88C phosphorylation; 200 nM, 60 min; relative to: untreated).
`O=c1[nH]nc(OCCCc2ccc(Cl)cc2)c(NCc2cccnc2)c1Br`: “normalized enrichment score” 1.31 (HEK-293T; RNA-seq GSEA, refers to: HALLMARK_UV_RESPONSE_DN; concentration not given; direction not given).
`CC#CC(=O)N1CCC[C@H]1c1nc(-c2ccc(C(=O)Nc3ccccn3)cc2)c2c(N)nccn12` has a maximal inhibition of ≤ 90% (Ramos; calcium flux, FLIPR).
With `Cc1nc(NC(=O)N2CCC[C@H]2C(N)=O)sc1-c1ccnc(C(C)(C)C(F)(F)F)c1` the maximum inhibition was 94.8% (MCF7/luciferase, wild type; cell proliferation).
`COc1ccc2c(c1)NC(=O)CN2c1nc(C)nc2ccccc12` — result for “cells in G2/M phase”: 83.8% (A549; flow cytometry; 0.003 µM, 24 h).
For `C[C@H]1[C@@H](O)O[C@@H]2O[C@@]3(C)CC[C@H]4[C@H](C)CC[C@@H]1[C@@]24OO3`, the necrotic cells was 0.1% (THP-1; annexin V/PI flow cytometry, refers to: annexin V-/PI+; 1.6 µM, 24 h).
For `CCCN1CCN(c2ccc3nc(-c4ccc5nc(-c6cc(OC)ccc6OC)[nH]c5c4)[nH]c3c2)CC1`, the growth percent was 111% (NCI/ADR-RES; cell growth, NCI-60 SRB; 10 µM, 48 h).
With `CC/C(=N\NC(=O)NCc1cccc(O)c1)c1ccc(O)c(C)c1O` the protein level was 1.09 ± 0.24 (SK-OV-3; Western blot, refers to: YAP; 1 µM, 1 h, 3D culture, gellan gum, unit not given; relative to: β-actin).
`CC(C)C[C@@H](C=O)NC(=O)[C@H](CC(C)C)NC(=O)[C@H](CC(C)C)NC(=O)OCc1ccccc1` gave a fibulin-3 level of -55.5% (ARPE-19 HiBiT fibulin-3; HiBiT luminescence; 1.66 µM).
For `O=C(NC1CCNCC1)c1[nH]ncc1NC(=O)c1c(Cl)cccc1Cl`, the beat amplitude was 103% (iCell Cardiomyocytes (hiPSC-derived); xCELLigence Cardio impedance; concentration not given, 2 h; relative to: control).
`CCn1c(-c2nonc2N)nc2cncc(CNC3CCNCC3)c21`: “relative cell number” 98.5% (SK-OV-3; ATP; 2D monolayer culture; 1 µM, 4 days; relative to: untreated).
For `Cc1[nH]c(/C=C2\C(=O)Nc3ccc(F)cc32)c(C)c1C(=O)NC[C@H](O)CN1CCOCC1`, the cell index was 106% (iCell Cardiomyocytes (hiPSC-derived); cellular impedance; concentration not given, 24 h; relative to: control).
`Cn1cc(Nc2nccc(-c3ccc4c(c3)CN(C3COC3)CC[C@H]4NC(=O)c3cn(C(C)(C)C)nn3)n2)cn1`: “pathway activation z-score” 2.45 (mouse splenic B cells; refers to: Androgen signalling; 30 mg/kg, IgD-activated in vivo; relative to: vehicle, direction not given).
The ΔPSI of `Clc1nc(NCc2ccco2)c2[nH]cnc2n1` is reported as -0.209 (iPSC-derived cardiomyocytes; RNA-seq, refers to: chr1 exon ending 94961433; unit not given; relative to: DMSO minus compound).
The Emax of `CC1(C)COc2ccc(F)cc2CN2c3nc4c(cnn4cc3OC[C@H]2C(F)F)C(=O)N1` is reported as 100% (Ba/F3 EML4-ALK variant 1 S1206F; cell viability).
With `C=CC(=O)N1CCC[C@@H](c2ccc(C(N)=O)c3[nH]ccc23)C1` the maximum inhibition was 33.6% (Ramos; calcium flux, FLIPR; 4 h preincubation).
With `CCCCCCNC(=O)n1cc(F)c(=O)[nH]c1=O` the ceramide level was 0.4 ± 0.02 pmol/mg protein (SW-403; LC-MS, refers to: Cer(d18:1/18:0); 0.3 µM).
For `C=Cc1c2[n-]c(c1C)/C=c1\[n-]/c(c(C)c1C=C)=C\c1[n-]c(c(CCC(=O)O)c1C)/C=c1\[n-]c(c(C)c1CCC(=O)O)=C2.[Sn+4]`, the fold change was 2.53 (SH-SY5Y; RNA-seq, refers to: SPHK1 mRNA; 5 µM, 5 h; relative to: untreated cells).
`CC(C)CC(=O)C(=O)O` — result for “z-scored log2 fold change”: -0.0335 (binding, equilibrium dialysis LC-MS; 5 µM, thermostabilized A2AR-BRIL construct; relative to: no-protein control, direction not given).
`CCn1cc(-c2cc(Cn3ccoc3=N)cc3c2CCN([C@@H](C)c2cc(OC)ccn2)C3=O)c(C(F)(F)F)n1` gave an EC50 of 0.489 µM (CAL-120; cell growth, inhibitor; 120 h).
Under “z-scored log2 fold change”, `N[C@@H](Cc1ccccc1)C(=O)O` is recorded as 0.164 (binding, equilibrium dialysis LC-MS; 5 µM, thermostabilized A2AR-BRIL construct; relative to: no-protein control, direction not given).
`Cc1cc(C)n(-c2nc(-c3ccc(Cl)cc3)c3c(NC(=O)c4ccccc4)nnc-3[nH]2)n1` has a cell growth of 91.4% (NCI-H226; SRB; 10 µM, NCI60 single-dose screen; relative to: untreated).
`COC(=O)c1cc(C(C)=NNc2nc(-c3ccc4c(c3)OCCCO4)cs2)ccc1O` has an apoptotic cells of 11 ± 1.37% (T47D; annexin V/PI flow cytometry; 10 µM, 72 h).
`CC(C)NCC(O)c1ccc(O)c(O)c1` (centres unmarked) has a sarcomere length of 1.8 µm (mouse ventricular cardiomyocytes; dose not given, 0.383 s).
With `CS(=O)(=O)CCNCc1ccc(-c2ccc3ncnc(Nc4ccc(OCc5cccc(F)c5)c(Cl)c4)c3c2)o1` the beat rate was 98.5% (iCell Cardiomyocytes (hiPSC-derived); xCELLigence Cardio impedance; concentration not given, 2 h; relative to: control).
The IC50 of `COc1cc(N2CCC(N3CCN(C)CC3)CC2)ccc1Nc1ncc(Cl)c(Nc2ccccc2P(C)(C)=O)n1` is reported as 0.191 µM (Ba/F3 EML4-ALK variant 1 E1210K; cell viability).
`c1ccc2c(Cc3ccc4cnn(C5COC5)c4c3)nccc2c1` gave an inhibition of 0% (A549; mitochondrial oxygen consumption, Seahorse XF96; 10 µM).
With `Cn1cc(-c2ccc3nnc(Sc4ccc5ncccc5c4)n3n2)cn1` the ATP level was 100% (iCell Cardiomyocytes (hiPSC-derived); CellTiter-Glo; concentration not given, 24 h; relative to: control).
Under “log2 fold change”, `Nc1ncnc2c1ncn2[C@@H]1O[C@H](CO)[C@@H](O)[C@H]1O` is recorded as 2.1 and 2 and 1.1 (activated human T cells; refers to: inosine; 10 µM; relative to: DMSO).
`COc1ccc(C(=O)c2ncnc3cc(OC)c(OC)cc23)cc1` gave an inhibition of 11% (A549; mitochondrial oxygen consumption, Seahorse XF96; 10 µM).
`CCCCc1nc(Cl)c(CO)n1Cc1ccc(-c2ccccc2-c2nn[nH]n2)cc1`: “log2 fold change” 2.94 (human PBMC; RNA-seq, refers to: GPR31 mRNA; 10 µg/mL, 24 h; relative to: untreated control).
With `CN1CCN(c2ccc3nc(-c4c(N)c5c(F)cccc5[nH]c4=O)[nH]c3c2)CC1` the ATP level was 92.3% (iCell Cardiomyocytes (hiPSC-derived); CellTiter-Glo; concentration not given, 24 h; relative to: control).
`c1ccc2[nH]ccc2c1`: “mRNA level, LS mean” 3.31 counts per million (HCT-8; RNA-seq, refers to: ABCG1; concentration not given).
`C[C@]12O[C@H](C[C@]1(O)CO)n1c3ccccc3c3c4c(c5c6ccccc6n2c5c31)CNC4=O` has a beat rate of 149% (iCell Cardiomyocytes (hiPSC-derived); xCELLigence Cardio impedance; concentration not given, 2 h; relative to: control).
`Cn1cc(-c2ccc(-c3cncc(Cl)c3N3CCC4(CCNC4=O)CC3)cc2)cn1` — result for “log2 fold change”: -1.85 (COLO 205; gene expression, microarray, refers to: DLGAP5 mRNA; concentration not given, 2 h; relative to: untreated cells).
`CO[C@@H]1[C@H](N(C)C(=O)c2ccccc2)C[C@H]2O[C@]1(C)n1c3ccccc3c3c4c(c5c6ccccc6n2c5c31)C(=O)NC4` gave a beat rate of 166% (iCell Cardiomyocytes (hiPSC-derived); xCELLigence Cardio impedance; concentration not given, 2 h; relative to: control).
With `C=CC(=O)N1CCC(COCC(=O)N2CCN(c3nc(-c4cnc(N)nc4C(F)F)nc(N4CCOC[C@@H]4C)n3)CC2)CC1` the GR50 was 75.9 nM (SK-OV-3; resazurin growth rate inhibition; 72 h).

Excerpt of the above:
With `C=CC(=O)N1CCC(COCC(=O)N2CCN(c3nc(-c4cnc(N)nc4C(F)F)nc(N4CCOC[C@@H]4C)n3)CC2)CC1` the GR50 was 75.9 nM (SK-OV-3; resazurin growth rate inhibition; 72 h).
With `CN1CCN(c2ccc3nc(-c4c(N)c5c(F)cccc5[nH]c4=O)[nH]c3c2)CC1` the ATP level was 92.3% (iCell Cardiomyocytes (hiPSC-derived); CellTiter-Glo; concentration not given, 24 h; relative to: control).
`CCCCc1nc(Cl)c(CO)n1Cc1ccc(-c2ccccc2-c2nn[nH]n2)cc1`: “log2 fold change” 2.94 (human PBMC; RNA-seq, refers to: GPR31 mRNA; 10 µg/mL, 24 h; relative to: untreated control).
`Nc1cccc2c1C(=O)N(C1CCC(=O)NC1=O)C2=O` (centres unmarked) gave a viability of 22% (MM1.S; XTT; 2 µM; relative to: untreated).
`CCn1c(-c2nonc2N)nc2cncc(CNC3CCNCC3)c21`: “relative cell number” 98.5% (SK-OV-3; ATP; 2D monolayer culture; 1 µM, 4 days; relative to: untreated).
With `Cn1cc(-c2ccc3nnc(Sc4ccc5ncccc5c4)n3n2)cn1` the ATP level was 100% (iCell Cardiomyocytes (hiPSC-derived); CellTiter-Glo; concentration not given, 24 h; relative to: control).
`Cc1cc(Nc2ncc(Cl)c(Nc3ccccc3S(=O)(=O)C(C)C)n2)c(OC(C)C)cc1C1CCNCC1` — result for “log2 fold change”: -5.88 (CLB-BAR; phosphoproteomics LC-MS/MS, refers to: CCDC88C phosphorylation; 200 nM, 60 min; relative to: untreated).
